Experimental data gathered from unrelated publications.
Parts stem from different laboratories: compare values within a part only.

Series 1 — method: RNAcompete; molecule type: RNA; sample: in vitro; concentration: 20 nM; notes: 7-mer, probes averaged, single round; reference: mean of 7-mers; direction: higher = stronger binding
Target: PABPC1L2, full length, GST fusion (mouse, UniProt A0ABA7IW68)
Construct (chain): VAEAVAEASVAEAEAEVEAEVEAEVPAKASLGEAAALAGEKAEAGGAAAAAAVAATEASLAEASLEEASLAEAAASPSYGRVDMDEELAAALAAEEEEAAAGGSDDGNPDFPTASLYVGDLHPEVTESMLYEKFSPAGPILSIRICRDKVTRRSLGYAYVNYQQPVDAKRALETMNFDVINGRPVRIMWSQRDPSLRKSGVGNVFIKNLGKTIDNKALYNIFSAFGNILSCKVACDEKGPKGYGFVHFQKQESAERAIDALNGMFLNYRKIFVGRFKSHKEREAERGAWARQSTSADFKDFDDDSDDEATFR
`CCGAAGG` has a 7-mer Z-score of -0.108.
`UGAUUAG` gave a 7-mer Z-score of -0.121.
With `UCACUGA` the 7-mer Z-score was -0.18.
With `GUAUGCU` the 7-mer Z-score was -0.151.
`CCUUAGA` has a 7-mer Z-score of -0.209.
The 7-mer Z-score of `GAAGGUA` is reported as 0.046.

Series 2 — method: RNA Bind-n-Seq; molecule type: RNA; sample: in vitro; concentration: not given; reference: input RNA pool; direction: higher = stronger binding
Target: RING finger protein unkempt homolog, zinc fingers 1-6, GST-SBP tag (UNK, Homo sapiens, UniProt Q9C0B0, residues 30-357)
Sequence of UniProt Q9C0B0 (30-357, looked up): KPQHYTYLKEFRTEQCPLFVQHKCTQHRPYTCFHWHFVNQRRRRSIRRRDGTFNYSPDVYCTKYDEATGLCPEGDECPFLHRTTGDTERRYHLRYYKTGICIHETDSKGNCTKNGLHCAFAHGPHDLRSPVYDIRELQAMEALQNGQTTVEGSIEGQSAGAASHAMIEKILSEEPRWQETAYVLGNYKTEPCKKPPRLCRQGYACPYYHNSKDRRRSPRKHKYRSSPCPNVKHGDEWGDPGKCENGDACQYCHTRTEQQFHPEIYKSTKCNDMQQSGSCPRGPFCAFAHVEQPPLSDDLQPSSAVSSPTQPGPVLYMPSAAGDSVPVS
Notes: RNA with constant flanks, human-mouse chimeric sites, ends assumed
Shared flanks, not repeated: GGGAGUUCUACAGUCCGACGAUC … CAACAGAGGAUUGAGCAUCA
`GAUAGGAAAAGCUUGUUGGAGACCCGAUUGCAUGUCACUGGUAGAGACCUGAGGUGUCAAAUAGCUGAAACUUUCGGAUUUCAAGAAAAUUACAUCAAGAUCGUAAUAAAUAAGAAACAG` gave a bound/input enrichment of 0.37 ratio.
`UUCCCAACCUCCCGCCUCACCCCACCCCCGCUUUUUGGAAAGUUUUUGGCGUUUCUUUUCCUUCCCCAUACAAAGUGAUUACAGUUUCCCCCGCAAGUGGGGCUUGAAGGGCUUGACGGA` gave a bound/input enrichment of 0.556 ratio.
`GGACAUCUGUCAAAUUGUUAUGUUCCUGUGAAACAAGUGAACACUCUGAUACACUUCAUCUGCUUGUACAUUUAACUUUGUAUAAUAUGUAAAUAUGUUAAUCCAAGCAAUGUGUCACUU` has a bound/input enrichment of 0.15 ratio.
`CUGUGCGGGUGACUGUCCUGGAGUGGCUGGAGUUCCCGCCGGAGCGCGCGCAGGUUAAUUUUAGAAAAUGCCAAGUAGGAAGUUUGUUGAGGGUGAAGUGGUCAGAGGCCGAUGGCCUGG` has a bound/input enrichment of 3.38 ratio.
`GUGUCCUGCUUUCAACUUAAAUCACUGAGGCAUCUCUACUGUUCUGUGAGCAUCAGGACUGUAGCGCUGUGUCACCACAGAUGAGAAGUUAAGCAGCCUUUCUGUGGAGGGUGGGAAUGA` has a bound/input enrichment of 0.142 ratio.
The bound/input enrichment of `CCAAGUGAUUCAUCCCAAGGACAGGCCACCCCAUUUGAUGCCUGGACUGACGACAGUAUGGAAGGGCCUAGUCAAAAUGUUGAAGCUGAGUCAAUUCAGGAUGCCAUGAGUAUGGAAGAG` is reported as 0.211 ratio.
The bound/input enrichment of `CCUCCCCCGGGCCACCCACCCCUCCCGGCUCCCCGCCGAGAUCCAGGUUUCUUCUUAUUUCAUAGCAAAUAAGAAAAAUGUUCUACGCACAUUUUGUUCUCAGUAAACGAGGGCCUCUGG` is reported as 1.32 ratio.
`CUGUGACCACAAGAUCCUGAAGUUUGAGCAGCUGAAGUUGACUCCCUCUCCUUGCCUGAACCCCCCCCUUUUGUUCCCCCAUCCCCCAGUGUCGGCUGAGAUGUUGCCUCUGCACGGUUC` gave a bound/input enrichment of 1.98 ratio.
With `GGUGGGGUGGUCAUUGCCGUUUGAGCUGCUGAUUUUCAUGAGUCGCCUUCAAAACUCUCGUGUAGGGUUGACACUGUGGGGGGGUGGGGGAUCCAGCUAUUUUUUUUAUUUUCAAGUCCA` the bound/input enrichment was 1.81 ratio.
The bound/input enrichment of `GUGACUGGUGUUAAGAUUUCCCCUCAGCAAAGAAGUGCAGUAGUCACCAUAAUUCCAUCUGUGGUGAGUGCCAGUCAGAUUGUGGAGCUGGUCCCAGAACUCAGUUUAGACAUGGGAACU` is reported as 0.3 ratio.
For `CGGAGCCCUCCUCUCCCACAGGCCCAAGAUAUAACCCACCAGUGCCUUUUGUCUUCCUGUCAGCUCUGUCAAUCACGCCUGUCCUCUGUCCCUCUCACCAAGUGCCCAAAGUGGGGAGGG`, the bound/input enrichment was 0.722 ratio.

Series 3 — method: RNA Bind-n-Seq; molecule type: RNA; sample: in vitro; concentration: 1 µM; notes: whole 134-nt RNA, ends assumed; added: 150 mM KCl; reference: input library; direction: higher = stronger binding
Target: Ras GTPase-activating protein-binding protein 1, RRM domain (G3BP1, Homo sapiens, UniProt Q13283)
Sequence of UniProt Q13283 (whole entry, looked up): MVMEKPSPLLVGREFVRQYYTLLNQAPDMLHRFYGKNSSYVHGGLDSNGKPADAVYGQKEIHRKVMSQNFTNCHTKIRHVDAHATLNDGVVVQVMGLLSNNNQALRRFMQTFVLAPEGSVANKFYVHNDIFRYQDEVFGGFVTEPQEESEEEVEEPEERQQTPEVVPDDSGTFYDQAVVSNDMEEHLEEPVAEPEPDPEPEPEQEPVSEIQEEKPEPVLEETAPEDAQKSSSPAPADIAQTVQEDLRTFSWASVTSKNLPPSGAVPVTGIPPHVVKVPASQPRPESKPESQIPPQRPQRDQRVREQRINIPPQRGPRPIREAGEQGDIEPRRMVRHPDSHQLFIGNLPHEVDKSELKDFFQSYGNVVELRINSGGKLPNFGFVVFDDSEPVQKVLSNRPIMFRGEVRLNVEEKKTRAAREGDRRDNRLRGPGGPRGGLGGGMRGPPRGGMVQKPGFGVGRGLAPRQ
Shared flanks, not repeated: GGGAGUUCUACAGUCCGACGAUC … UGGAAUUCUCGGGUGUCAAGG
With `UGGGAGGUGGAUUUUGUUUAUUUUUUUAGCUCAUUUCCCGGGGUGGGAAUUUUUUUUUAAUAUGUGUCAUGAAUAAAGUUGUUUUUGAAA` the log2 enrichment was 1.59.
The log2 enrichment of `AGUCCUGUGCUACACAUCGUAUGUACCGAAUCGGGUUUUUUUGGGAAAGGGAAAGGGAAAGUAUUAUGUUACGCCGUUCGGAUCUGCACU` is reported as 0.247.
For `CCUGUGCUACACAUCGUAUGUACCGAAUCGGGGUUUUUUGGUUUUUUGGGGUUUUUUGGGGAAAGUAUUAUGUUACGCCGUUCGGAUCUG`, the log2 enrichment was -0.307.
`CACAGACAACACGCACCCACACAGACACAGAGGGAAGGGGUUGGGAUGGGGCCAGGGUGCACAGCAGGGCGGGGUAGGACCCCAGCCCCU` has a log2 enrichment of 0.00281.
`CACAGACAACACGCACCCACACAGACACAGAGGGAAGGGGUUGGGAUGGGGACAGGGUGCACAGCAGGGCGGGGUAGGACCCCAGCGCCU` gave a log2 enrichment of -0.252.
`GUCCUGUGCUACACAUCGUAUGUACCGAAUCGGGGAAAAAGGGGUUUUUGGGGUGGGGAAAGUAUUAUGUUACGCCGUUCGGAUCUGCAC` gave a log2 enrichment of 0.952.
With `AGGGAGGUGGAUUUUGUUUAUUUUUUUAGCUCAUUUCCAGGGGUGGGAAUUUUUUUUUAAUAUGUGUCAUGAAUAAAGUUGUUUUUGAAA` the log2 enrichment was 1.99.
For `CCCUGUGGGCCUUGCUCAGAGCGGAGAAAGCAUUUGUUUGUACAAGAUCCGCAGACGUGUAAAUGUUCCUGCAAAAACACAGACUCGCGU`, the log2 enrichment was -0.13.
`AAGUCCUGUGCUACACAUCGUAUGUACCGAAUCGGGAAAAAGGGUUUUUGGGUGGGAAAGUAUUAUGUUACGCCGUUCGGAUCUGCACUU` gave a log2 enrichment of 0.773.
`ACCAUGCAGGUGGGCAUCUUUGGGAAGUGGGGCAAGGGGGGGAUAGGGAGGGGGGUAACACUUUGGGAACAGGUGGUAAAAGGUCGUUUC` gave a log2 enrichment of -0.521.
`GCAGGAAGUAAAAACAAAUGGAAAUGCUUCGGAUAGUGGCAGGGGUGGGGGCUGCUAAGGAAAGGGUGGGAUGGGAGUGGGUAAAGAGUU` gave a log2 enrichment of 0.809.
For `GCAGGAAGUAAAAACAAAUGGAAAUGCUUCGGAUAGUGUCAGGGGUGGGGGUUGCUAAGGAAAGGGUGGGAUGGGAGUGGGUAAAGAGUU`, the log2 enrichment was 0.849.
`CCUCAAGUCCUGUGCUACACAUCGUAUGUACCGAAUCGGGUUGGUUGGGUUGGAAAGUAUUAUGUUACGCCGUUCGGAUCUGCACUUCCA` gave a log2 enrichment of -0.279.
`ACCAUGCAGGUGGGCAUCUUUGGGAAGUGGGGCAAGGGGGGGAUAGGGAGGGGGGUAACACUUUGGGAACAGGUGGUCCCAGGUCGUUAC` gave a log2 enrichment of 0.854.

Other studies, line by line
For `PhoQ, residues 284 288 289 292 302 303 NLCILV`, the fold induction was 13.3 (PhoP, residues 12 14 15 18 19 SYFRT (Escherichia coli, UniProt P23836); Sort-seq, measured: YFP reporter; E. coli; PhoQ-PhoP variant library, added: 10 µM Mg2+; reference: high Mg2+ state, higher = stronger signaling).

Repeated from above (series 3):
`CACAGACAACACGCACCCACACAGACACAGAGGGAAGGGGUUGGGAUGGGGACAGGGUGCACAGCAGGGCGGGGUAGGACCCCAGCGCCU` gave a log2 enrichment of -0.252.
`GUCCUGUGCUACACAUCGUAUGUACCGAAUCGGGGAAAAAGGGGUUUUUGGGGUGGGGAAAGUAUUAUGUUACGCCGUUCGGAUCUGCAC` gave a log2 enrichment of 0.952.
With `AGGGAGGUGGAUUUUGUUUAUUUUUUUAGCUCAUUUCCAGGGGUGGGAAUUUUUUUUUAAUAUGUGUCAUGAAUAAAGUUGUUUUUGAAA` the log2 enrichment was 1.99.
